{"data": "Published values collected from several papers", "note": "Parts stem from different laboratories: compare values within a part only. Changes are numbered by the printed parent chain."}
{"data": "Study 1", "target": "CCNE1, cyclin fold, Cln2 fusion (human)", "technique": "yeast growth competition, sequencing", "matrix": "yeast", "setting": "strong parent motif", "reference": "not given", "direction": "higher = stronger binding", "starting sequence": "viral docking peptide; KGVKRKLFAEDSS"}
{"Change": "KGVKRKYFAEDSS [L7Y]", "normalised enrichment score": 0.09}
{"Change": "KGVKRKLYAEDSS [F8Y]", "normalised enrichment score": 3.39}
{"Change": "KGVKRKAFAEDSS [L7A]", "normalised enrichment score": 0.212}
{"Change": "KGTKRKLFAEDSS [V3T]", "normalised enrichment score": 5.56}
{"Change": "KGVCRKLFAEDSS [K4C]", "normalised enrichment score": 7.04}
{"Change": "KGVKNKLFAEDSS [R5N]", "normalised enrichment score": 0.107}
{"Change": "KGVKRKLFAEDCS [S12C]", "normalised enrichment score": 7.5}
{"Change": "KGVMRKLFAEDSS [K4M]", "normalised enrichment score": 6.04}
{"Change": "KGNKRKLFAEDSS [V3N]", "normalised enrichment score": 0.361}
{"Change": "KGVLRKLFAEDSS [K4L]", "normalised enrichment score": 2.84}
{"Change": "KGVKRKLFCEDSS [A9C]", "normalised enrichment score": 7.31}
{"Change": "KGVKRMLFAEDSS [K6M]", "normalised enrichment score": 7.14}
{"Change": "KGVKRKLFAEKSS [D11K]", "normalised enrichment score": 6.81}
{"Change": "KGHKRKLFAEDSS [V3H]", "normalised enrichment score": 5.44}
{"Change": "KGVKRKLWAEDSS [F8W]", "normalised enrichment score": 6.66}
{"Change": "KGVKRKEFAEDSS [L7E]", "normalised enrichment score": 0.528}
{"Change": "KGVKRKLDAEDSS [F8D]", "normalised enrichment score": 0.225}
{"Change": "KGVKRWLFAEDSS [K6W]", "normalised enrichment score": 5.16}
{"Change": "KTVKRKLFAEDSS [G2T]", "normalised enrichment score": 7.48}
{"Change": "KGVKRKLFAETSS [D11T]", "normalised enrichment score": 7.04}
{"Change": "KGVKAKAFAEDSS [R5A L7A]", "normalised enrichment score": 0.249}
{"Change": "KGVKRKLFMEDSS [A9M]", "normalised enrichment score": 7.63}
{"Change": "KGVKRKLFANDSS [E10N]", "normalised enrichment score": 7.17}
{"Change": "KGVKRKLFAEDES [S12E]", "normalised enrichment score": 6.95}
{"Change": "KGVKRKTFAEDSS [L7T]", "normalised enrichment score": 0.344}
{"data": "Study 2", "target": "Sal-like protein 4, full length isoform B (SALL4, Homo sapiens, UniProt Q9UJQ4-2, residues 1-616)", "technique": "universal PBM", "form": "double-stranded DNA, one strand shown", "matrix": "in vitro", "tested at": "not given", "setting": "8-mer, flanks averaged, mean of replicates", "direction": "higher = stronger binding"}
{"Strand": "CTATCCAA", "E-score": 0.0886}
{"Strand": "ACTACCGA", "E-score": -0.144}
{"Strand": "CGAACAAA", "E-score": 0.141}
{"Strand": "ACTTATAG", "E-score": 0.143}
{"Strand": "CTGGTTGA", "E-score": -0.219}
{"Strand": "TGTACCAA", "E-score": 0.0871}
{"Strand": "ACCGACAT", "E-score": -0.0232}
{"Strand": "ATTTCCAA", "E-score": 0.205}
{"data": "Study 3", "target": "HLA class I histocompatibility antigen, A alpha chain, allele A*80:01 (Homo sapiens, UniProt P04439)", "observed": "peptide-MHC binding", "form": "peptide", "tested at": "concentration not given"}
{"Molecule": "MTRGILGSY", "binding": "inactive"}
{"Molecule": "FGAQMGWPV", "binding": "inactive"}
{"Molecule": "LYVAGVPEL", "binding": "inactive"}
{"Molecule": "DTWHGFKNM", "binding": "inactive"}
{"Molecule": "WFQRIPLQW", "binding": "inactive"}
{"Molecule": "QCFSVVLRY", "binding": "active"}
{"Molecule": "TPSGKRLQI", "binding": "inactive"}
{"Molecule": "WLGDVWQEK", "binding": "inactive"}
{"Molecule": "HSEEGSRAY", "binding": "inactive"}
{"Molecule": "AYDHGNVIL", "binding": "inactive"}
{"Molecule": "SELTVSPPD", "binding": "inactive"}
{"Molecule": "FRYKSRCYV", "binding": "inactive"}
{"data": "Study 4", "target": "UBE2A UBC core domain (UniProt P49459)", "technique": "yeast two-hybrid", "matrix": "yeast", "setting": "mostly zero background", "reference": "not given", "direction": "higher = stronger interaction", "B1": "RNF25 RING domain (UniProt Q96BH1); chain LTDNNIPHGQCVICLYGFQEKEAFTKTPCYHYFHCHCLARYIQHMEQELKAQGQEQEQERQHATTKQKAVGVQCPVCREPLVYDLASL", "B2": "TRIM69 RING domain (UniProt Q86WT6); chain VIQDITMELHCPLCNDWFRDPLMLSCGHNFCEACIQDFWRLQAKETFCPECKMLCQYNNCTF", "B3": "TRIM72 RING domain (UniProt Q6ZMU5); chain APGLLHQELSCPLCLQLFDAPVTAECGHSFCRACLGRVAGEPAADGTVLCPCCQAPTRPQALST", "B4": "CUL9 RING domain (UniProt Q8IWT3); chain AQAVPVRPDHCPVCVSPLGCDDDLPSLCCMHYCCKSCWNEYLTTRIEQNLVLNCTCPIADCPAQPTGAFIR", "B5": "IRF2BPL RING domain (UniProt Q9H1B7); chain SPMANSGPLCCTICHERLEDTHFVQCPSVPSHKFCFPCSRESIKAQGATGEVYCPSGEKCPLVGSNVP", "B6": "UHRF2 RING domain (UniProt Q96PU4); chain CGGDPEKKCHSCSCRVCGGKHEPNMQLLCDECNVAYHIYCLNPPLDKVPEEEYWYCPSCKTDSSEVVKAGER", "B7": "PHF21A RING domain (UniProt Q96BD5); chain SPTSTDGDIHEDFCSVCRKSGQLLMCDTCSRVYHLDCLDPPLKTIPKGMWICPRCQDQMLKKEEAIPW", "B8": "ZNF598 RING domain (UniProt Q86UK7); chain AAAPERGGGSCVLCCGDLEATALGRCDHPVCYRCSTKMRVLCEQRYCAVCREELRQVVFGK", "B9": "TRIM63 RING domain (UniProt Q969Q1); chain PMENLEKQLICPICLEMFTKPVVILPCQHNLCRKCANDIFQAANPYWTSRGSSVSMSGGRFRCPTCRHEVIMDRHGV", "B10": "RNF170 RING domain (UniProt Q96K19); chain TRQQFYTDMYCPICLHQASFPVETNCGHLFCGACIIAYWRYGSWLGAISCPICRQTVTLLLTVF", "B11": "MID1 RING domain (UniProt O15344); chain METLESELTCPICLELFEDPLLLPCAHSLCFNCAHRILVSHCATNESVESITAFQCPTCRHVITLSQRGL", "UniProt P49459, sequence (whole entry, looked up)": "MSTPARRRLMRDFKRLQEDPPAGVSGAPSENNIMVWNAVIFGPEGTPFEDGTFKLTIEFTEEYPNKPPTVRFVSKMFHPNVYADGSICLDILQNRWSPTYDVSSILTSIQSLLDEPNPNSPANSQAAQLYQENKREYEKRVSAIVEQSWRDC"}
{"Molecule": "QLRRLQEERTCKVCMDKEVSVVFIPCGHLVVCQECAPSLRKCPICRGIIKGTVRTF (BIRC2 RING domain (UniProt Q13490))", "lacZ reporter activity": 0}
{"Molecule": "EDEVSDNSAECVVCLSDVRDTLILPCRHLCLCNTCADTLRYQANNCPICRLPFRALLQIR (RNF157 RING domain (UniProt Q96PX1))", "lacZ reporter activity": 0}
{"Molecule": "B1 (RNF25 RING domain)", "lacZ reporter activity": 0}
{"Molecule": "B2 (TRIM69 RING domain)", "lacZ reporter activity": 0}
{"Molecule": "B3 (TRIM72 RING domain)", "lacZ reporter activity": 0}
{"Molecule": "PEELQAMDNVCIICREEMVTGAKRLPCNHIFHTSCLRSWFQRQQTCPTCRMDVLRASLPA (SYVN1 RING domain (UniProt Q86TM6))", "lacZ reporter activity": 0}
{"Molecule": "B4 (CUL9 RING domain)", "lacZ reporter activity": 0}
{"Molecule": "B5 (IRF2BPL RING domain)", "lacZ reporter activity": 0}
{"Molecule": "B6 (UHRF2 RING domain)", "lacZ reporter activity": 0}
{"Molecule": "B7 (PHF21A RING domain)", "lacZ reporter activity": 0}
{"Molecule": "B8 (ZNF598 RING domain)", "lacZ reporter activity": 0}
{"Molecule": "B9 (TRIM63 RING domain)", "lacZ reporter activity": 0}
{"Molecule": "QLQDIKEQTMCPVCLDRLKNMIFLCGHGTCQLCGDRMSECPICRKAIERRILLY (MIB1 RING domain (UniProt Q86YT6))", "lacZ reporter activity": 0}
{"Molecule": "DAIPSLSECQCGICMEILVEPVTLPCNHTLCKPCFQSTVEKASLCCPFCRRRVSSWTRYH (RNF168 RING domain (UniProt Q8IYW5))", "lacZ reporter activity": 0}
{"Molecule": "B10 (RNF170 RING domain)", "lacZ reporter activity": 0}
{"Molecule": "B11 (MID1 RING domain)", "lacZ reporter activity": 0}
{"note": "A few entries again (study 2):"}
{"Strand": "CTATCCAA", "E-score": 0.0886}
{"Strand": "ACTACCGA", "E-score": -0.144}
{"Strand": "CGAACAAA", "E-score": 0.141}
{"Strand": "ACTTATAG", "E-score": 0.143}
{"Strand": "CTGGTTGA", "E-score": -0.219}
{"Strand": "TGTACCAA", "E-score": 0.0871}
{"Strand": "ACCGACAT", "E-score": -0.0232}
